{"data": "Measurements collected from several papers", "note": "A part holds a random share of what one study measured.", "UniProt Q9Y4K4, sequence (whole entry, looked up)": "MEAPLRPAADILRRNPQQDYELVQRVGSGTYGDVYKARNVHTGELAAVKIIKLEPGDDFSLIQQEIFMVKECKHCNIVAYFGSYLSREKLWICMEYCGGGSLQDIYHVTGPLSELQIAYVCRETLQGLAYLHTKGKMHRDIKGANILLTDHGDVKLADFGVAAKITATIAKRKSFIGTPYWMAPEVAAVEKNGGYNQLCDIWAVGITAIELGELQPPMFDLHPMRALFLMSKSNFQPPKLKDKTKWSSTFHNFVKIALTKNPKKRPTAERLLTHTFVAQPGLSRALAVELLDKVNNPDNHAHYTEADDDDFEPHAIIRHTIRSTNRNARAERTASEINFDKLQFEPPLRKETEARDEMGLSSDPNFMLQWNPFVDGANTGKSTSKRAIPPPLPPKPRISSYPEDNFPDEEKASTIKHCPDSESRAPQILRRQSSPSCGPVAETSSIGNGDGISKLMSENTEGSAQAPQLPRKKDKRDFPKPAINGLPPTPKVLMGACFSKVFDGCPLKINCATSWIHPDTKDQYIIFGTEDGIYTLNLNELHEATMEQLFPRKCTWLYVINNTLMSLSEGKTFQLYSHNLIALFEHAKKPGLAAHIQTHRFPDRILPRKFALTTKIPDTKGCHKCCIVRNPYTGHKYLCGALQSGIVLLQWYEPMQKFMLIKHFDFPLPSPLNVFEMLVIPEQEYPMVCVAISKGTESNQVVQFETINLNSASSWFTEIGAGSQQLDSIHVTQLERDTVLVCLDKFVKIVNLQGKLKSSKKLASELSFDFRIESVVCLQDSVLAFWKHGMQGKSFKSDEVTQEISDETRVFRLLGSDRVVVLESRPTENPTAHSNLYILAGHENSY", "UniProt Q99986, sequence (whole entry, looked up)": "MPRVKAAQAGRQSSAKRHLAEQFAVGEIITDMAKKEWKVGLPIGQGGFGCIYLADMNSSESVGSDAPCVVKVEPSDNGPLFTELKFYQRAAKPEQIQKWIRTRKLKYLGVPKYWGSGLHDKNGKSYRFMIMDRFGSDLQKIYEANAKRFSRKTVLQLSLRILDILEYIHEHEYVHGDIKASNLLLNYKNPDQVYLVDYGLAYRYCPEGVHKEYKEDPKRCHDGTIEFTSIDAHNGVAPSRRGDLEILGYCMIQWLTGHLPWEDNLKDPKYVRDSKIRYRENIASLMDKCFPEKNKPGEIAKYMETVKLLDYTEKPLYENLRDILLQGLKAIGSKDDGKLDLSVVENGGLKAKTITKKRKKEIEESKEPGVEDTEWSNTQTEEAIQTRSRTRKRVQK", "UniProt P15735, sequence (whole entry, looked up)": "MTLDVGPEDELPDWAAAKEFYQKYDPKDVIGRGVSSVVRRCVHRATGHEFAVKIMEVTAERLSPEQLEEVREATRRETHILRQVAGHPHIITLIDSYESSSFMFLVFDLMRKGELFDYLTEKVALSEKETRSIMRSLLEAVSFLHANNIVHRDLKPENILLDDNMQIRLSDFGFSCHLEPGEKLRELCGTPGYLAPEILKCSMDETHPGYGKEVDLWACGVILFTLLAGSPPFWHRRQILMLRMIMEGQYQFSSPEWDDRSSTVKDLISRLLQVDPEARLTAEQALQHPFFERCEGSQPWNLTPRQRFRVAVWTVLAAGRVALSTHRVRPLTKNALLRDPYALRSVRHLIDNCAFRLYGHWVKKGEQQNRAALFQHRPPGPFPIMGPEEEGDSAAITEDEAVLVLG", "UniProt P61075, sequence (whole entry, looked up)": "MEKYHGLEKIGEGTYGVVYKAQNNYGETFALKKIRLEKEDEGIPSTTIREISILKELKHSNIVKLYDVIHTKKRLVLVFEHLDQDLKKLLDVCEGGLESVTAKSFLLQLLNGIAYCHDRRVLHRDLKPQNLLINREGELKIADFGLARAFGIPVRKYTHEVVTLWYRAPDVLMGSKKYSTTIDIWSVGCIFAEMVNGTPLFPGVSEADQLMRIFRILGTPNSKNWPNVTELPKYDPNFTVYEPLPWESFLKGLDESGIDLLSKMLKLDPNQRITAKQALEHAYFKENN"}
{"data": "Set 1", "target": "DNA polymerase theta, ATPase domain (POLQ, Homo sapiens, UniProt O75417)", "read-out": "enzyme activity", "mode": "inhibitor", "tested at": "77 µM", "reference": "untreated", "UniProt O75417, sequence (whole entry, unmodified, looked up)": "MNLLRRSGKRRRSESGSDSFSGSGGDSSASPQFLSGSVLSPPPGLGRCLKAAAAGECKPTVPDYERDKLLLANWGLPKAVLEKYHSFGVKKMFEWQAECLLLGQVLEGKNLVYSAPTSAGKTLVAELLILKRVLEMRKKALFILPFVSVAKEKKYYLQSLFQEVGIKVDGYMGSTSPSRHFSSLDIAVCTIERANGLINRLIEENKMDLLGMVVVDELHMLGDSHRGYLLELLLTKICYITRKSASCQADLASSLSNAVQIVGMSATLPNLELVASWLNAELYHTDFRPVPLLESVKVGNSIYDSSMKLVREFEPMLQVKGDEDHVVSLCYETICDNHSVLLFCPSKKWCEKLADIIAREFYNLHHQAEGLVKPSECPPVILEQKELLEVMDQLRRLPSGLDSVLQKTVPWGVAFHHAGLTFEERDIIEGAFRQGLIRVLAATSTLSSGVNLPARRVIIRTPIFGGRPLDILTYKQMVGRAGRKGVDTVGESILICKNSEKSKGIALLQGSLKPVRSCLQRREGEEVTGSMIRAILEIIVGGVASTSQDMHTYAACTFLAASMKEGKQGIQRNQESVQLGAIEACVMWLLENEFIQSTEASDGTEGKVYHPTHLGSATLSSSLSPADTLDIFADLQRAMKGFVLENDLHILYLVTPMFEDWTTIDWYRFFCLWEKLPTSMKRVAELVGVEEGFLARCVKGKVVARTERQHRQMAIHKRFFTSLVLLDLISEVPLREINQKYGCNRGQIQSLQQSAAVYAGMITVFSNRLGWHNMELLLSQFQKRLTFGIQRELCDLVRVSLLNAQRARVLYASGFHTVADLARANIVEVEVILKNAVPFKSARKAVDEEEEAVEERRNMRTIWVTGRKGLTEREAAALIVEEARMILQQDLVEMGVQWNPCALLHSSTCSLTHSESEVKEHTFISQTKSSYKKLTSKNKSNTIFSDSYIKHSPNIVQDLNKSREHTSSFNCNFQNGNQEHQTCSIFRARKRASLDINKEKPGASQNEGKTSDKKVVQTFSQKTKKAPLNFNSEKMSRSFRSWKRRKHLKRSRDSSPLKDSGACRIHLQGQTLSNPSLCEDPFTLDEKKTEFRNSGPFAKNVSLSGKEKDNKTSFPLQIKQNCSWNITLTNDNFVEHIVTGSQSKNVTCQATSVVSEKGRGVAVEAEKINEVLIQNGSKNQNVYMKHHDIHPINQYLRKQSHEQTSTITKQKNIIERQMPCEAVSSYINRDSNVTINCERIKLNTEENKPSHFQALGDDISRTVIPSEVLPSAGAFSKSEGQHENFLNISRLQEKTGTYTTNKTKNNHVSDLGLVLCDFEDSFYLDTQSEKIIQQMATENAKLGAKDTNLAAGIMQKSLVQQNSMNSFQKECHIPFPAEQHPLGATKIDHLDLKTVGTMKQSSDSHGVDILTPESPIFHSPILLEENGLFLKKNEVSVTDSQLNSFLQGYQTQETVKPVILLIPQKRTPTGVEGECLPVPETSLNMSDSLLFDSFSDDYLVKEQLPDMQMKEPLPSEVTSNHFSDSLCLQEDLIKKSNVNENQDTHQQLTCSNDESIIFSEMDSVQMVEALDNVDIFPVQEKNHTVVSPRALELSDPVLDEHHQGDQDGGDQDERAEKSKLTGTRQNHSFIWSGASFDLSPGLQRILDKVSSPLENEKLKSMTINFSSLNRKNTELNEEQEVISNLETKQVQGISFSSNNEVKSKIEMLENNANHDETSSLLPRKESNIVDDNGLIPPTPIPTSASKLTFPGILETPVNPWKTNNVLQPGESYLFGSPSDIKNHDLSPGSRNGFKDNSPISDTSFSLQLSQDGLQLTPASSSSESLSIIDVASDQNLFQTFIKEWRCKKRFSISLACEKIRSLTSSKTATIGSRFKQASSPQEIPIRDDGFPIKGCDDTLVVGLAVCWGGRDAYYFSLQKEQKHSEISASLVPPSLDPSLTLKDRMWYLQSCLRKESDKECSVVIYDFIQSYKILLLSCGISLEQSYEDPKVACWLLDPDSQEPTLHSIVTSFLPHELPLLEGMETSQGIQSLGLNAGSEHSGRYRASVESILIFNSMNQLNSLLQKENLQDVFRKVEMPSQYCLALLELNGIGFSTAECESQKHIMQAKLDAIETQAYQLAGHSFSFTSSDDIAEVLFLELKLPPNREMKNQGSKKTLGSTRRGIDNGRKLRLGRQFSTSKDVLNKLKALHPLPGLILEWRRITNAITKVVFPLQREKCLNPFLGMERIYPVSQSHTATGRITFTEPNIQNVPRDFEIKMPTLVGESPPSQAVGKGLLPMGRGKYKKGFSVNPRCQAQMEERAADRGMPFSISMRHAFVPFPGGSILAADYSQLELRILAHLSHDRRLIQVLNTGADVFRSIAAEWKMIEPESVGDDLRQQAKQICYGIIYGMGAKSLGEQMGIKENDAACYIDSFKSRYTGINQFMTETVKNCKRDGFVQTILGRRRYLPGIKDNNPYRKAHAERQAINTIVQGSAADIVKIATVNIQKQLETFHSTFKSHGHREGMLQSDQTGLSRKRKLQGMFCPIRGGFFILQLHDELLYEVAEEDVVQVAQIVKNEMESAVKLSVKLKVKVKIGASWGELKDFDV"}
{"SMILES": "CCCCCC[C@H]1C(=O)O[C@H](C)[C@H](NC(=O)c2cccc(NC=O)c2O)C(=O)O[C@@H](C)[C@@H]1OC(=O)CC(C)C", "remaining activity [%]": 98.2}
{"SMILES": "COc1cc2c(c(OC)c1OC)-c1ccc(O)c(=O)cc1[C@@H](N)CC2", "remaining activity [%]": 106}
{"SMILES": "C#CCN(C)[C@H](C)Cc1ccccc1", "remaining activity [%]": 90.5}
{"SMILES": "CC(O)(CS(=O)(=O)c1ccc(F)cc1)C(=O)Nc1ccc(C#N)c(C(F)(F)F)c1 (stereo not shown)", "remaining activity [%]": 102}
{"SMILES": "COC1=CC(=O)O[C@@H](/C=C/c2ccccc2)C1", "remaining activity [%]": 100}
{"SMILES": "CC1=CC(=O)C2=C(C)C[C@H](O)[C@@H]3[C@H](OC(=O)[C@H]3C)[C@H]12", "remaining activity [%]": 99.2}
{"SMILES": "O=C[C@H](Cl)[C@@H](O)[C@H](O)[C@H](O)CO", "remaining activity [%]": 113}
{"SMILES": "CC(C)=CCOc1c2occc2cc2ccc(=O)oc12", "remaining activity [%]": 112}
{"SMILES": "C[C@H]1CNCCc2ccc(Cl)cc21", "remaining activity [%]": 104}
{"SMILES": "C[C@@H]1[C@H](O)[C@@H](C)/C=C/C=C/CC/C=C/C=C/C=C/C=C/C(O[C@H]2O[C@H](C)[C@@H](O)[C@H](N)[C@@H]2O)CC2O[C@](O)(CC(O)C(O)CCC(O)CC(O)CC(O)CC(=O)O[C@H]1C)CC(O)C2C(=O)O (stereo partly shown)", "remaining activity [%]": 99.9}
{"data": "Set 2", "target": "Calcium/calmodulin-dependent protein kinase type II subunit alpha (CAMK2A, Homo sapiens, UniProt Q9UQM7)", "read-out": "enzyme activity", "mode": "inhibitor", "tested at": "10 µM", "UniProt Q9UQM7, sequence (whole entry, looked up)": "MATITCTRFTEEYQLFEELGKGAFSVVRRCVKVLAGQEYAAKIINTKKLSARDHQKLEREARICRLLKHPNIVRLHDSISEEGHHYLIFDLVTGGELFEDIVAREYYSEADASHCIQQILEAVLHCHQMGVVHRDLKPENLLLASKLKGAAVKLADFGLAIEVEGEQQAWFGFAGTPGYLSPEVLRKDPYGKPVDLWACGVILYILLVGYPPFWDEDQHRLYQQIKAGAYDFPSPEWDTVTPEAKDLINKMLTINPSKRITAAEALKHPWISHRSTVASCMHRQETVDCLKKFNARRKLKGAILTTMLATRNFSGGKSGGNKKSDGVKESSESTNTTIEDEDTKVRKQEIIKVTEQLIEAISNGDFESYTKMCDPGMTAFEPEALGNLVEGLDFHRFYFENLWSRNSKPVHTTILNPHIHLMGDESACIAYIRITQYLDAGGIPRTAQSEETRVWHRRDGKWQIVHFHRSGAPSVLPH"}
{"SMILES": "CC1(C)O[C@@H]1COc1c2occc2cc2ccc(=O)oc12", "inhibition [%]": -14}
{"SMILES": "CCC(=O)c1cc2c(cc1O)OCO2", "inhibition [%]": -6}
{"SMILES": "CCO[C@H]1O[C@@H]2O[C@@]3(C)CC[C@H]4[C@H](C)CC[C@@H]([C@H]1C)[C@@]24OO3", "inhibition [%]": 1}
{"SMILES": "C=C1[C@H](OC(C)=O)[C@@H](OC(=O)c2ccccc2)[C@@H](OC(C)=O)C(C)(C)[C@H]2O[C@](O)([C@H](C)C2=O)[C@@]2(OC(C)=O)C[C@H](C)[C@H](OC(C)=O)[C@@H]2[C@H]1OC(C)=O", "inhibition [%]": 14}
{"SMILES": "C/C=C(\\C)C(=O)O[C@@H]1C[C@H](O)[C@]23CO[C@H](C(=O)OC)[C@H]2[C@](C)([C@]24O[C@@]2(C)[C@H]2C[C@@H]4O[C@@H]4OC=C[C@@]42O)[C@H](O)[C@@H]2OC[C@@]1(C(=O)OC)[C@H]23", "inhibition [%]": -5}
{"SMILES": "C=C1[C@@H](O)[C@]2(O)OC[C@]34[C@H]2[C@@]2(C)[C@H](O)C(=O)C=C(C)[C@@H]2C[C@H]3OC(=O)[C@H](O)[C@@]14O", "inhibition [%]": -20}
{"SMILES": "C[C@@H]1CC[C@@]2(NC1)O[C@H]1C[C@H]3[C@@H]4CC=C5C[C@@H](O)CC[C@]5(C)[C@H]4CC[C@]3(C)[C@H]1[C@@H]2C", "inhibition [%]": -29}
{"SMILES": "CC(CCc1ccccc1)NC(C)C(O)c1ccc(O)cc1 (stereo not shown)", "inhibition [%]": -5}
{"SMILES": "C#C[C@]1(O)C=C[C@H]2[C@@H]3CCC4=CC(=O)CC[C@@H]4[C@H]3CC[C@@]21CC", "inhibition [%]": -10}
{"data": "Set 3", "SMILES": "COC[C@H]1OC(=O)c2coc3c2[C@@]1(C)C1=C(C3=O)[C@@H]2CCC(=O)[C@@]2(C)C[C@H]1OC(C)=O", "read-out": "enzyme activity", "mode": "inhibitor", "tested at": "0.5 µM", "reference": "control"}
{"target": "RAF1 (Homo sapiens, UniProt P04049)", "remaining activity [%]": 96}
{"target": "VRK1 (Homo sapiens, UniProt Q99986)", "remaining activity [%]": 101}
{"target": "DYRK2 (Homo sapiens, UniProt Q92630)", "remaining activity [%]": 111}
{"target": "SGK3 (Homo sapiens, UniProt Q96BR1)", "remaining activity [%]": 102}
{"target": "INSRR (Homo sapiens, UniProt P14616)", "remaining activity [%]": 100}
{"target": "DSTYK (Homo sapiens, UniProt Q6XUX3)", "remaining activity [%]": 95.4}
{"target": "PHKG2 (Homo sapiens, UniProt P15735)", "remaining activity [%]": 88.2}
{"target": "MAP4K5 (Homo sapiens, UniProt Q9Y4K4)", "remaining activity [%]": 95.6}
{"target": "ULK1 (Homo sapiens, UniProt O75385)", "remaining activity [%]": 87.5}
{"target": "PLK1 (Homo sapiens, UniProt P53350)", "remaining activity [%]": 2.36}
{"target": "NTRK2 (Homo sapiens, UniProt Q16620)", "remaining activity [%]": 99.9}
{"target": "HCK (Homo sapiens, UniProt P08631)", "remaining activity [%]": 91.3}
{"target": "ACVR1 (Homo sapiens, UniProt Q04771)", "remaining activity [%]": 93}
{"data": "Mixed results"}
{"SMILES": "Cc1nc(Cc2cccc(C(F)(F)F)c2)sc1-c1ccc(C(N)=O)nc1", "target": "HTR2C (Homo sapiens, UniProt P28335)", "read-out": "binding", "technique": "radioligand binding", "tested at": "10 µM", "measurement": "inhibition", "result": "0.93%"}
{"SMILES": "O=C(NCCCC1CCCCC1)c1ccc(CNC(=O)c2cnn(-c3ccccc3)c2C(F)(F)F)cc1", "target": "CRK2 (Plasmodium falciparum, UniProt P61075)", "read-out": "cell-free assay", "technique": "competition with immobilised ligand", "tested at": "0.1 µM", "measurement": "remaining binding", "result": "100%"}
